Results gathered from unrelated publications.
Each line is one published result; not all experiments were run side by side.
Ugcg: Ceramide glucosyltransferase (Ugcg, Mus musculus, UniProt O88693)
Chain of UniProt O88693 (whole entry, looked up): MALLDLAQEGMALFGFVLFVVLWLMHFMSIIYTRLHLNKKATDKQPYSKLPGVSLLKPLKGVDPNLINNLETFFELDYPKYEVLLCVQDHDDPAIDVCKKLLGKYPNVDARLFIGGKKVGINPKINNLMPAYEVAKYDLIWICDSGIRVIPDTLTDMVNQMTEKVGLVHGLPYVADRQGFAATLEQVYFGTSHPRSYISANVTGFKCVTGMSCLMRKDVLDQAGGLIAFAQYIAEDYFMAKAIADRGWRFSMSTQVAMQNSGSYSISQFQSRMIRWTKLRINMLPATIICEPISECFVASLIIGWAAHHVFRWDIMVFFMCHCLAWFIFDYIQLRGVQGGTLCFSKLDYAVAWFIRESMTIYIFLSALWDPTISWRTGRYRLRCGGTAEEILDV

SMILES	tested on	test	test system	conditions	how to read	endpoint	result
O=C(Nc1cnccc1-c1ccc([18F])nc1)c1ccnc(NC(=O)C2CC2)c1		ex vivo gamma counting	FVB/NJ mice, both sexes, right kidney	intravenous, 120 min		mean SUV	0.311
CN(C)C(=O)CNC(=O)c1ccc(C2CCCCC2)cc1		liver microsome stability	rat liver microsomes	1 µM		hepatic clearance	48 mL/min/kg
CN(Cc1cc(C2CC2)on1)C(=O)c1cccc(-c2ccc(F)cc2)c1		metabolic stability	human, liver microsomes	2 µM, 0 h, pH 7.5		compound remaining	100%
COc1ccccc1NC(=O)OC1C(C)C(OC)C=COC2(C)Oc3c(C)c(O)c4c(c3C2=O)C2=NC3(CCN(CC(C)C)CC3)NC2=C(NC(=O)C(C)=CC=CC(C)C(O)C(C)C(O)C1C)C4=O (stereo not shown)			CD-1 mouse, plasma	oral, dose not given, efficacy dose		fAUC/MIC ratio	3.46
COc1ccc2c(c1)CN(C(=O)CCN1CCC(Cc3ccccc3)CC1)CC[S+]2[O-] (stereo not shown)			dog plasma	750 ng/mL		fu	0.33
O=C(Nc1ccc(C2CCCCC2)cc1)C1(N2CCOCC2)CC1		hepatocyte stability	cryopreserved rat hepatocytes	1 µM		hepatic clearance	45 mL/min/kg
COc1ccc(-c2ccc(COCCCCCN3C[C@H](O)[C@@H](O)[C@H](O)[C@H]3CO)cc2)cc1	Ugcg	enzyme activity, inhibitor, fluorescence				IC50	0.025 µM
COCC1CN(C2CCN(c3cc(OC)c(Nc4ncc(Br)c(Nc5ccc6c(c5P(C)(C)=O)OCCO6)n4)cc3C)CC2)C1			EGFR-mutant NSCLC patients, plasma	oral, 150 mg single dose, geometric mean		t1/2	24.3 h
Cc1cc(/C=C/C#N)cc(C)c1Oc1nc(NC2CCN(Cc3ccc(S(C)(=O)=O)cc3)CC2)nc2ncccc12			Sprague-Dawley rat, plasma	intravenous, 2 mg/kg		MRT(0-inf)	1.25 h
C=C(NC(=O)c1csc(-c2nc3c(cc2O)-c2nc(cs2)C(=O)NC(C(C)O)C(=O)NC(=C(C)OC)c2nc(cs2)C(=O)NC2c4nc(cs4)C(=O)NC(COC(=O)c4c5c6c(cccc6n4O)COC(=O)C(OC4CC(C)(O)C(N(C)C)C(C)O4)C2OC5)c2nc-3cs2)n1)C(N)=O (stereo not shown)			ICR mice, Streptococcus pneumoniae ATCC 49169 infected, immunocompromised, blood	intravenous, 16 mg/kg twice daily		AUC(0-t)	0.861 µM·h
COc1cccc(OC)c1-c1cc(C(=O)NC2(C(=O)O)C3CC4CC(C3)CC2C4)nn1-c1ccc(C(=O)N(C)CCOCCN(C)C(=O)[C@H](CCCCNC(=O)[C@H](CC(C)C)NC(=O)C2OC2C(=O)O)NC(=O)CN2CCN(CC(=O)[O-])CCN(CC(=O)[O-])CCN(CC(=O)[O-])CC2)cc1C(C)C.[177Lu+3] (mixture of isomers)			mouse, HT-29 xenograft	72 h post injection, biodistribution	relative to: tumour over blood uptake	tumour-to-blood ratio	3.64
O=C(CN1CCOCC1)Nc1ccc([C@H]2[C@@H](F)[C@@H](F)C[C@@H](F)[C@H]2F)cc1		hepatocyte stability	cryopreserved mouse hepatocytes	1 µM		hepatic clearance	21 mL/min/kg
C=C1C[C@]2(C(=O)OC)C=C(C(=O)Nc3cccc(C(=O)Nc4ccc(Nc5nccc(-c6cccnc6)n5)c(C)c4)c3)C(=O)[C@H]1C2			Wistar rat male, blood plasma	10 µM, 120 min		compound remaining	0.42%
NS(=O)(=O)c1cccc(-c2ccc([C@H]3[C@@H](F)[C@@H](F)C[C@@H](F)[C@H]3F)cc2)c1		liver microsome stability	rat liver microsomes	1 µM		hepatic clearance	6.1 mL/min/kg
Cc1cc(-c2ccc(C(=O)[C@@H]3CCCC[C@H]3C(=O)Nc3cnn4c3C(=O)NCC4)cc2)[nH]n1			human, urine	oral, 200 mg, 0-24 h	relative to: dose	cumulative recovery of radioactivity	5.37%
C=CC(=O)Nc1cc(Nc2nccc(-c3c[nH]c4ccccc34)n2)c(OC)cc1N(C)CCN(C)C		storage stability	human plasma samples	30 d, -80 °C, MQC level	relative to: nominal concentration	percentage recovery	19.9%
O=C(NCCO)c1ccc([C@H]2[C@@H](F)[C@@H](F)C[C@@H](F)[C@H]2F)cc1		liver microsome stability	cynomolgus liver microsomes	1 µM		hepatic clearance	6.6 mL/min/kg
O=C(N1CCCCC1)C12CC(c3ccccc3)(C1)C2(F)F		metabolic stability	human, liver microsomes	2 µM, 15 min, pH 7.4		compound remaining	91%
OC[C@@H]1[C@@H](O)[C@H](O)[C@@H](O)CN1CCCCCOCc1ccc(-c2cncnc2)cc1	Ugcg	enzyme activity, inhibitor, fluorescence				IC50	2 µM

Repeated from above:
SMILES	tested on	test	test system	conditions	how to read	endpoint	result
O=C(N1CCCCC1)C12CC(c3ccccc3)(C1)C2(F)F		metabolic stability	human, liver microsomes	2 µM, 15 min, pH 7.4		compound remaining	91%
